{"data": "Measured values pooled from the literature", "note": "± marks the error that the study gave."}
{"SMILES": "Cn1c(=O)oc2ccc(-c3ccc(CC(C#N)NC(=O)C4CNCCCO4)c(F)c3)cc21 (stereo not drawn)", "system": "human", "setting": "oral, 10 mg once daily, TEAE, multiple ascending dose", "endpoint": "ALT increased incidence", "result": "11.1%"}
{"SMILES": "NCCCC(=O)OCC(=O)c1ccc(O)cc1F.O=C(O)C(F)(F)F", "assay": "photolysis, measured: disappearance of compound", "system": "aqueous HEPES buffer with LiClO4", "setting": "pH 7.3", "endpoint": "quantum yield", "result": 0.21}
{"SMILES": "Oc1ccc2ccccc2c1/N=N/c1ccc(/N=N/c2ccccc2)cc1", "system": "extracted rat blood QC samples", "setting": "0.2 µg/L, 2 h, room temperature, short-term stability", "endpoint": "measured concentration", "result": "0.207 µg/L"}
{"SMILES": "Cc1[nH]c(/C=C2\\C(=O)Nc3ccc(F)cc32)c(C)c1NC(=O)CCN1CCN(C)CC1", "system": "dog plasma", "setting": "1.00 ng/mL, 30 d frozen, -80 °C", "endpoint": "accuracy deviation", "result": "-1.4%"}
{"SMILES": "CC(C)(O)c1ncc([S@](N)(=O)=NC(=O)Nc2c3c(cc4c2CCC4)CCC3)s1", "system": "healthy human", "setting": "oral, 10 mg once daily, day 14, capsule formulation, geometric mean", "endpoint": "Cmax", "result": "1040 ng/mL"}
{"SMILES": "[2H]C([2H])([2H])NC(=O)c1ccc(N2C(=S)N(c3ccc(C#N)c(C(F)(F)F)c3)C(=O)C2(C)C)cc1F", "system": "male human, plasma", "setting": "oral, 40 mg, single dose, fasted", "endpoint": "MRT", "result": "186 h"}
{"SMILES": "COC(=O)CN1CCN(CC(=O)OC)CCN(Cc2cc(-c3nc4ccccc4s3)cc(OC)c2O)CC1", "assay": "UV-Vis pH titration", "setting": "25 °C, ionic strength 0.1 M NaCl", "endpoint": "pKa2", "result": 6.9}
{"SMILES": "CC(C)[C@H](NC(=O)CNC(=O)[C@H](CCC(N)=O)NC(=O)[C@H](C)N)C(=O)O", "system": "human", "setting": "dose not given, across phase I studies", "endpoint": "volume of distribution", "result": "≥ 1 L/kg"}
{"SMILES": "CC[C@@H](C)N([11CH3])C(=O)c1nc(-c2ccccc2)c2ccccc2n1", "assay": "ultrafiltration", "system": "rhesus monkey, plasma", "setting": "baseline scan", "endpoint": "plasma free fraction", "result": "0.069 ± 0.004"}
{"SMILES": "COc1cc(C)c(Cc2ccc(O)cc2)cc1[C@@H]1S[C@H](CO)[C@@H](O)[C@H](O)[C@H]1O", "system": "Japanese T2DM patients, urine", "setting": "2.5 mg luseogliflozin, day 7, once daily", "how to read": "relative to: dose", "endpoint": "urinary excretion 0-24 h", "result": "11.2 ± 2.13%"}
{"SMILES": "N=C(N)NCCC[C@@H]1NC(=O)[C@H](Cc2c[nH]c3ccccc23)NC(=O)[C@@H](CC2CCCCC2)NC(=O)[C@@H]2CCCN2C(=O)[C@@H](NC(=O)CCc2ccccc2)CCCNC1=O", "system": "C57BL/6J mice, plasma", "setting": "intravenous, 1 mg/kg, two-compartment model", "endpoint": "distribution rate constant k12", "result": "13.7 h⁻¹"}
{"SMILES": "COc1ccc2cc(-c3ccc(-c4ccc(C)cn4)nc3)oc2c1", "assay": "TCSPC", "system": "dioxane", "endpoint": "fluorescence lifetime", "result": "1.47 ns"}
{"SMILES": "CC(C)c1cnc(-c2cc(Cl)ccc2F)cc1Nc1ccncc1C(=O)NC(CO)CO", "assay": "monotherapy, measured: blood alkaline phosphatase increased", "system": "human patients", "setting": "oral, dose not given, grade 5, phase I A", "endpoint": "patients with treatment-related adverse event", "result": "0%"}
{"SMILES": "CC/C=C\\C/C=C\\C/C=C\\C/C=C\\C/C=C\\CCCCOC(CC)C(=O)O (stereo not drawn)", "assay": "radioactivity, 14C-labelled", "system": "Wistar rat, male, muscle", "setting": "oral, 100 mg/kg, 1 h", "endpoint": "tissue concentration", "result": "3.6 µg equivalents/g tissue"}
{"SMILES": "Cc1ccc(C(C)C)cc1.O=C(N=P(c1ccccc1)(c1ccccc1)c1ccccc1)c1ccccn1.[Cl-].[Cl-].[Ru+2]", "system": "NOD scid mice, liver", "setting": "dose not given, end of efficacy study", "endpoint": "ruthenium level", "result": "< 5 µg/g"}
{"SMILES": "Cc1cc(CN2CCN(c3c(Br)cnc4nc(-c5ccc(N6CCN(C)CC6)cc5)[nH]c34)CC2)no1", "system": "female athymic CrTac:NCr-Foxn1(nu) mice, plasma", "setting": "oral, 75 mg/kg twice daily for 3 days, 1 and 6 h after last dose", "endpoint": "free plasma concentration", "result": "~60 nM"}
{"SMILES": "O=C(Cn1c(=O)c(Cc2ccccc2)nc2ccccc21)NCCOCCO", "assay": "MTT", "system": "rat primary colonocytes, Albino rat, male", "setting": "72 h, concentration at 100% viability", "endpoint": "safe concentration", "result": "0.17 ± 0.002 µM"}
{"SMILES": "COc1ccc(/C=C/c2ccc(-c3ccc(C)cn3)nc2)cc1", "system": "aqueous HEPES buffer", "setting": "pH 7.4, zinc-free ligand", "endpoint": "fluorescence lifetime", "result": "1.11 ns"}
{"SMILES": "NCCCC(=O)OCC(=O)c1cc(F)c(O)c(F)c1.O=C(O)C(F)(F)F", "assay": "photolysis, measured: rearranged acid appearance", "system": "aqueous HEPES buffer with LiClO4", "setting": "pH 7.3", "endpoint": "quantum yield", "result": 0.04}
{"SMILES": "CN1CCC[C@]1(C)/C=C/S(=O)(=O)NC(=O)Nc1c2c(cc3c1CCC3)CCC2", "system": "human, plasma", "setting": "oral, 100 mg twice daily, day 1, tau 12 h, multiple ascending dose", "endpoint": "AUC(0-tau)", "result": "66800 ng·h/mL"}
{"SMILES": "C[C@H](NC(=O)[C@H](Cc1cnc[nH]1)NC(=O)[C@H](CO)NC(=O)[C@@H](N)CC(=O)O)C(=O)N[C@@H](CCCCN)C(=O)N[C@@H](CCCNC(=N)N)C(=O)N[C@@H](Cc1cnc[nH]1)C(=O)N[C@@H](Cc1cnc[nH]1)C(=O)NCC(=O)N[C@@H](Cc1ccc(O)cc1)C(=O)N[C@@H](CCCCN)C(=O)N[C@@H](CCCNC(=N)N)C(=O)N[C@@H](CCCCN)C(=O)N[C@@H](Cc1ccccc1)C(=O)N[C@@H](Cc1cnc[nH]1)C(=O)N[C@@H](CCC(=O)O)C(=O)N[C@@H](CCCCN)C(=O)N[C@@H](Cc1cnc[nH]1)C(=O)N[C@@H](Cc1cnc[nH]1)C(=O)N[C@@H](CO)C(=O)N[C@@H](Cc1cnc[nH]1)C(=O)N[C@@H](CCCNC(=N)N)C(=O)NCC(=O)N[C@@H](Cc1ccc(O)cc1)C(=O)O", "assay": "cationic PAGE", "system": "pooled whole saliva supernatant G1, diluted 1:10", "setting": "100 µg/mL, 37 °C", "endpoint": "time to fragment appearance", "result": "0.5 h"}
{"SMILES": "C#CCOc1ccc(/C=C2\\SC(=O)N(CC(=O)NCc3ccccc3)C2=O)cc1", "assay": "inverse Kirkwood-Buff integrals", "system": "binary solvent mixture", "setting": "concentration not given, 298.15 K, mole fraction x1 0.60", "endpoint": "correlation volume", "result": "4490 cm³/mol"}
{"SMILES": "CC(C)[C@H](NC(=O)[C@@H]1CCCN1C(=O)[C@H](CCCNC(=N)N)NC(=O)[C@H](CS)NC(=O)[C@H](Cc1c[nH]c2ccccc12)NC(=O)[C@H](CCCNC(=N)N)NC(=O)[C@@H](Cc1ccccc1)NC(=O)[C@H](Cc1c[nH]cn1)NC(=O)[C@H](CCC(=O)O)NC(=O)[C@H](CS)NC(=O)[C@H](CS)NC(=O)[C@@H]1CC(=O)N[C@@H](CCCNC(=N)N)C(=O)NCC(=O)N[C@@H](CC(=O)O)C(=O)N[C@H](Cc2ccc(O)cc2)C(=O)N1)C(N)=O [technetium-99m labelled]", "system": "C57 mouse, female, B16/F1 melanoma", "setting": "intravenous, 0.037 MBq, 0.5 h", "how to read": "relative to: tumour over kidneys", "endpoint": "tumour to tissue ratio", "result": 0.32}
{"SMILES": "COc1cc2c(cc1OC)CN(CCCCn1ccc3cc(OCC[18F])ccc31)C2", "system": "ICR mice, male, lung", "setting": "intravenous, 30 min", "endpoint": "uptake", "result": "7.1 ± 1.12 %ID/g"}
{"SMILES": "NCCCC(=O)OCC(=O)c1ccc(O)c(C(F)(F)F)c1.O=C(O)C(F)(F)F", "assay": "photolysis at 300 nm", "system": "ammonium acetate buffered acetonitrile-water", "setting": "pH 5.0, 0.01 mol/L buffer", "endpoint": "quantum yield of disappearance", "result": 0.24}
{"SMILES": "COC(=O)C(c1ccccc1Cl)N1CCC(SCC(=O)c2cccc(OC)c2)C(=CC(=O)O)C1 (mixture of isomers)", "assay": "HPLC-MS/MS", "system": "feline citrate plasma", "setting": "100 ng/mL, 72 h, 4 °C, storage stability", "endpoint": "deviation from nominal", "result": "3%"}
{"SMILES": "CC(C)N(P(c1ccccc1)c1ccccc1)P(c1ccccc1)c1ccccc1.Cc1ccc(C(C)C)cc1.F[B-](F)(F)F.[Cl][Ru+]", "assay": "measured: ruthenium", "system": "BALB/c nude mice, serum", "setting": "ip, 5 mg/kg", "endpoint": "apparent clearance", "result": "0.105 L/h"}
{"SMILES": "O=C(CCCCC[N+]#[C][99Tc-5]([C]#[N+]CCCCCC(=O)N[C@H]1C(O)O[C@H](CO)[C@@H](O)[C@@H]1O)([C]#[N+]CCCCCC(=O)N[C@H]1C(O)O[C@H](CO)[C@@H](O)[C@@H]1O)([C]#[N+]CCCCCC(=O)N[C@H]1C(O)O[C@H](CO)[C@@H](O)[C@@H]1O)([C]#[N+]CCCCCC(=O)N[C@H]1C(O)O[C@H](CO)[C@@H](O)[C@@H]1O)[C]#[N+]CCCCCC(=O)N[C@H]1C(O)O[C@H](CO)[C@@H](O)[C@@H]1O)N[C@H]1C(O)O[C@H](CO)[C@@H](O)[C@@H]1O (stereo partly drawn)", "assay": "SPECT", "system": "nude mouse with U87 MG xenograft", "endpoint": "time to tumour/muscle plateau", "result": "~50 min"}
{"SMILES": "COc1ccnc(C[S+]([O-])c2nc3cc(-n4cccc4)ccc3[nH]2)c1C (stereo not drawn)", "system": "male Sprague Dawley rats, plasma", "setting": "oral, 1 mg/kg ilaprazole racemate", "how to read": "relative to: compound over R-ilaprazole", "endpoint": "Cmax ratio", "result": 1.96}
{"SMILES": "CN[C@@H](CCOc1cccc2ccccc12)c1ccccc1", "system": "healthy male humans, plasma", "setting": "oral, 60 mg of dapoxetine", "endpoint": "terminal half-life", "result": "15.2 ± 4.16 h"}
{"SMILES": "NC[C@@H](C(=O)Nc1ccc(-c2cn[nH]c2)cc1)c1ccccc1", "assay": "OECD 405 eye irritation", "system": "New Zealand White rabbit, eye", "setting": "topical, 0.1%, 72 h (day 4), scale 0 to 3", "how to read": "direction not given", "endpoint": "conjunctival redness score", "result": 0}
{"SMILES": "CC[C@H](C)[C@H](NC(=O)[C@H](CC(C)C)NC(=O)[C@H](Cc1c[nH]c2ccccc12)NC(=O)[C@H](C)NC(=O)[C@@H](NC(=O)[C@H](Cc1ccccc1)NC(=O)[C@H](CC(=O)O)NC(=O)[C@H](CCCNC(=N)N)NC(=O)[C@H](C)NC(=O)[C@H](C)NC(=O)[C@H](CC(C)C)NC(=O)[C@H](C)NC(=O)[C@H](CC(=O)O)NC(=O)[C@H](CC(C)C)NC(=O)[C@@H](NC(=O)[C@@H](NC(=O)[C@H](C)NC(=O)[C@H](CC(C)C)NC(=O)[C@H](CCC(=O)O)NC(=O)[C@H](CO)NC(=O)[C@H](CO)NC(=O)[C@H](Cc1ccccc1)NC(=O)[C@@H](NC(=O)CNC(=O)[C@H](CCC(=O)O)NC(=O)CNC(=O)[C@@H](N)Cc1c[nH]cn1)[C@@H](C)O)[C@@H](C)O)[C@@H](C)CC)[C@@H](C)CC)C(=O)N[C@@H](C)C(=O)N[C@H](C(=O)N[C@@H](CCCCN)C(=O)N[C@H](C(=O)N[C@H](C(=O)N[C@@H](CC(=O)O)C(=O)N[C@@H](CCCCN)C(=O)N[C@@H](CCCCN)C(=O)O)[C@@H](C)O)[C@@H](C)CC)[C@@H](C)O", "assay": "immunoaffinity LC-MS/MS", "system": "healthy human subjects, plasma", "setting": "intravenous infusion, 1 mg single dose, infused over 15 min", "endpoint": "AUClast", "result": "0.782 nM·h"}
{"SMILES": "CN(O)C(=O)CCC(=O)NCCCN(CCCCN(CCCNC(=O)CCC(=O)N(C)O)C(=O)CCC(=O)N(C)O)C(=O)CCC(=O)N(C)O.[89Zr]", "system": "mouse, liver", "setting": "4 h", "endpoint": "tracer uptake", "result": "0.08 %ID/g"}
